Measurements pooled from the literature.
A part holds a random share of what one study measured. Substitutions count along the parent as printed.

Sample 1
Target: Sal-like protein 4, full length isoform B (SALL4, Homo sapiens, UniProt Q9UJQ4-2, residues 1-616)
Technique: universal PBM
Form: double-stranded DNA, one strand shown
Matrix: in vitro
Tested at: not given
Setting: 8-mer, flanks averaged, mean of replicates
Direction: higher = stronger binding
Quantity: E-score
Target sequence (chain): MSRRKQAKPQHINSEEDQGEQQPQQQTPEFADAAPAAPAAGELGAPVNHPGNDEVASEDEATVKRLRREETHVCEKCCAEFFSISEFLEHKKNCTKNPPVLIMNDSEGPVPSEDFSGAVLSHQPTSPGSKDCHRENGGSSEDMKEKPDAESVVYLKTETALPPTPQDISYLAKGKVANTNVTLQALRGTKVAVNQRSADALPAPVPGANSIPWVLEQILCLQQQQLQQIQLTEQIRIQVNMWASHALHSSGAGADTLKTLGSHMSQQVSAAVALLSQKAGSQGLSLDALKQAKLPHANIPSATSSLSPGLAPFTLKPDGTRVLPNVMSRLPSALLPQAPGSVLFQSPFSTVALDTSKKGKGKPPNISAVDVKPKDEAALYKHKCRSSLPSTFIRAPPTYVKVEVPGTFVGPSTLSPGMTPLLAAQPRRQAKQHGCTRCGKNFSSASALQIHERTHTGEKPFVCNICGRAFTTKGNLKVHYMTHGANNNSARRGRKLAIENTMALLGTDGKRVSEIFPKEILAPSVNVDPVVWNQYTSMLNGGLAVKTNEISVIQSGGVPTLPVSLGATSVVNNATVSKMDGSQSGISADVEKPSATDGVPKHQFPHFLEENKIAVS
ATGATCAG: 0.217
ATCAGGTC: -0.0553
ACATCAAG: 0.176
GATTTACC: 0.0734
CTCAGGCC: -0.277
AGTCTTAC: 0.0892
AGACACCA: -0.0248
CGTCGACC: -0.127
AAGATCTA: -0.0366
ACAAGAAC: 0.162
CGAAATGC: -0.0163
CTTGCCCC: -0.324
ATAGACTC: 0.0413
TACTTTCA: 0.203
TAATACGA: 0.289
AACCCGTT: -0.144
ACGTGGAA: 0.0408
TCAGCAAA: 0.165
AGTCCGAC: -0.16
CACCACTC: -0.0746

Sample 2
Target: CREBZF, bZIP domain (human)
Technique: DHFR protein complementation
Matrix: yeast
Setting: single substitutions, most at no-binding floor
Baseline: wild-type JUN-FOS pair
Direction: higher = stronger binding
Quantity: binding fitness
Starting sequence: JUN, bZIP domain (human); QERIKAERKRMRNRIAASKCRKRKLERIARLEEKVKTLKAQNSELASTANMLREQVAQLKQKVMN; partner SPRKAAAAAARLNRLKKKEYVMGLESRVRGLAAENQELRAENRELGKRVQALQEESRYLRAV
L38I: -1.52 natural log
E32S: -1.45 natural log
K39S: -1.35 natural log
A49C: -1.41 natural log
T48W: -1.35 natural log
N42D: -1.45 natural log
A46M: -1.42 natural log
L52S: -1.51 natural log
K36L: -1.49 natural log
A46H: -1.5 natural log
Q41S: -1.56 natural log
L31A: -1.42 natural log
Q41G: -1.55 natural log
L52P: -1.55 natural log
Q55I: -1.57 natural log
A49D: -1.48 natural log

Sample 3
Target: Phosphate system positive regulatory protein PHO4, full length, GST-tagged (PHO4, Saccharomyces cerevisiae, UniProt P07270, residues 1-312)
Technique: competition protein-binding microarray
Form: double-stranded DNA, one strand shown
Matrix: in vitro
Tested at: 2 µM
Setting: whole 60-bp probe, lowest competitor level
Added: Cbf1 competitor, 0.05 µM
Direction: higher = stronger binding
Quantity: fluorescence intensity
Shared flanks, not repeated: … GTCTTGATTCGCTTGACGCTGCTG
Residues (chain): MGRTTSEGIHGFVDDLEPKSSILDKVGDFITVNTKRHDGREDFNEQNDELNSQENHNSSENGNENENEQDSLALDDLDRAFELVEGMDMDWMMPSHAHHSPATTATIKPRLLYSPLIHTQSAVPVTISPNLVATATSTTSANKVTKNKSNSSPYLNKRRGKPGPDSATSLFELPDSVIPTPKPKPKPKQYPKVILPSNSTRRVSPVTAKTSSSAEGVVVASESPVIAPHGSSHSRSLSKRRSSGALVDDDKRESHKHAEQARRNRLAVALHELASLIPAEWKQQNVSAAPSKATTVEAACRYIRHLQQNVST
CAAAGAAACCAAAGGGTCGTGCTTTCAAGAGATTAT: 9410 a.u.
GGAAGAAGCATCTCACGCATGGAAAACAATTGACCT: 5940 a.u.
CTTTCCCGATCTTTTCACGTGACCTTAGCACATTTG: 11800 a.u.
AAATTACTAAGTTGTCTTGTGGGTGACGCCGTATGA: 4250 a.u.
CACATCTCCCTTGCGCCCGTGCTTTTATATATATAA: 9390 a.u.
ATTATGGTAGAGACCCTCGTGAATACTGCATCTTGT: 7140 a.u.
GGAAGGTACACAAGTCACATGGCAACTGGCTAGGAT: 10300 a.u.
CTAACGAAGGTTTGCGAAGTGGGTGACAAGCCAAGT: 3260 a.u.
GGGAATACAAACCTTGATGTGACGCTTTAGCCAATA: 3360 a.u.
CTTCTGTAAATTTGCGACGTGGGTGGACGCGCCCCG: 6840 a.u.
TAATTGATTGGTTACCACGTAAATTCTTGAGCCTTT: 3850 a.u.
AAGATATATGAATAGGACGTGTCGGTAGAACTAGTA: 5760 a.u.
TCAGATGCGCTGATGGGCGTGCTTTACACCCATCAG: 7000 a.u.
GTCTTGTCTCATTGAGTGGTGGGTGTCCCCACTTCA: 4990 a.u.
TGCGCAACAACTTGCTAAGTGGGTGTATGTCTAGAA: 3650 a.u.
TCAAACAAGATAGCGTTCGTGACAAAAGGGAGATGG: 5180 a.u.
GCATTTGTTGGCCATCACGTGAGCCGGGATCTTAAG: 12100 a.u.
CTTATCTCGAGGAGTAACGTGGGTAGTTTGTTGGTC: 10800 a.u.

Sample 4
Target: Prothrombin, mature alpha-thrombin (F2, Homo sapiens, UniProt P00734)
Technique: aptamer microarray, sandwich
Form: DNA with 2'F-ANA
Matrix: in vitro
Tested at: 200 nM
Setting: whole 15-mer aptamer, many near background
Added: Cy3 exosite-II aptamer, 400 nM
Direction: higher = stronger binding
Quantity: mean fluorescence intensity
Sequence: GGTTGGTGTGGTTGG
2'F-ANA at 1 3 4 7 8 10 11 13 14: 65.8 a.u.
2'F-ANA at 1 3 5 6 8 13 14: 45.5 a.u.
2'F-ANA at 2 5 8 10 11 12 14: 46.5 a.u.
2'F-ANA at 1 3 4 8 9 15: 262 a.u.
2'F-ANA at 1 4 6 9 11 12: 191 a.u.
2'F-ANA at 1 2 3 6 7 9 10 15: 65.4 a.u.
2'F-ANA at 2 3 4 5 6 7 9 11 12 13 15: 81.8 a.u.
2'F-ANA at 1 3 4 5 7 10 11 15: 50.6 a.u.
2'F-ANA at 2 6 10 14: 86.3 a.u.
2'F-ANA at 5 6 13: 54.5 a.u.
2'F-ANA at 1 2 3 5 6 9 12 13 15: 126 a.u.
2'F-ANA at 1 6 11 12 14 15: 64.3 a.u.
2'F-ANA at 1 4 7 8 12 14 15: 74.3 a.u.
2'F-ANA at 1 3 6 8 9 11 15: 262 a.u.
2'F-ANA at 1 2 3 7 8 9 11 13: 187 a.u.
2'F-ANA at 3 4 6 7 10 11 12 13 14 15: 174 a.u.
2'F-ANA at 1 3 4 6 10 13 14 15: 59.2 a.u.
2'F-ANA at 1 3 4 5 6 9 10 11 13 14: 47.6 a.u.
2'F-ANA at 1 2 3 4 5 6 7 8 9 11 12 13 14 15: 53.4 a.u.
2'F-ANA at 1 2 5 6 7 9 10 11 12 13 14 15: 47.4 a.u.
2'F-ANA at 1 2 3 6 7 8 9 10 13 15: 64.7 a.u.
2'F-ANA at 1 3 5 7 15: 64.2 a.u.
2'F-ANA at 2 3 4 5 6 8 9 11 14: 53.9 a.u.
2'F-ANA at 2 7 8 9 10 12 13 14 15: 88.1 a.u.

Sample 5
Target: Histone acetyltransferase KAT6A, winged helix 2, GST fusion (KAT6A, Homo sapiens, UniProt Q92794, residues 85-181)
Technique: protein binding microarray
Form: double-stranded DNA, one strand shown
Matrix: in vitro
Tested at: not given
Setting: 8-mer, flanks averaged, mean of 2 arrays, mostly near background
Baseline: not given
Direction: higher = stronger binding
Quantity: E-score
Construct (chain): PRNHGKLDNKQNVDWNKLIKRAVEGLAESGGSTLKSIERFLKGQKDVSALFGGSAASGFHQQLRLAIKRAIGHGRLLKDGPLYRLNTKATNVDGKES
AAACTTAC: -0.197
GCCATCGA: 0.052
GACGACGA: -0.138
CGTGGTAG: -0.155
CGAAGGAC: -0.0125
CGCTGGTC: 0.0131
ACCAGTAG: 0.00995
AGATAGAT: -0.156
ACCTTATC: -0.0386
GCTGTTCC: -0.0879
ATTTAAAA: 0.0818
ATGACCCA: -0.0694
CGACATCA: 0.0851
ATTAATTC: 0.177
CCCGGCCA: 0.175
TAGCCGGA: 0.149
ATATCGCA: -0.0559
AATCAAAA: 0.183
AACCATAT: -0.0851
CGAGGTGA: 0.117
CGGGGCCA: 0.207
GCGATTAC: -0.00579
TTACTCAA: 0.0391
GAAGTCAA: -0.059
AACCATGG: -0.0306

Sample 6
Target: Interferon regulatory factor 5, full length, phosphomimetic (IRF5, Homo sapiens, UniProt Q13568-2, residues 1-514, K96S/S451D/S453D/S456D/S462D)
Technique: protein-binding microarray
Form: double-stranded DNA, one strand shown
Matrix: in vitro
Tested at: 250 nM
Setting: 60-bp whole probe
Added: salmon DNA 0.4 mg/ml
Baseline: random background probes
Direction: higher = stronger binding
Quantity: log fluorescence
Shared flanks, not repeated: GCCTAGCAC … GTCTTGATTCGCTTGACGCTGCTG
GTTTATTTATTTTTACATTAGTGCTAG: 1.36 z-score
CTGTCTGAGGACACCCTGGCGTGCTAG: -0.52 z-score
TTACATTTCAGACTGGATTAGTGCTAG: 0.921 z-score
AATTTTTACTTTCTGAATGCGTGCTAG: 4.68 z-score
TTAGGTTGCGGGTTTCGGTTAGTGCTA: 7.33 z-score
TTAGGTTTCCTTGCCCTTTAGTGCTAG: 0.476 z-score
TTATATACCTGTATATCTTCGTGCTAG: 0.599 z-score
TTAGGTACCGGACTGGGTTAGTGCTAG: -0.222 z-score
CTAGGTATCGACTATCGGTTAGTGCTA: 7.46 z-score
ATTTCTTTCTAATTCAAAGTGTGCTAG: 2.41 z-score
TTAGGTGTCGGGTATCGGTTAGTGCTA: 3.19 z-score
GTCGGTATCGGTTTCGGGACGTGCTAG: 9.62 z-score
GACGATCTCAGTTCCGAGACGTGCTAG: -0.128 z-score
GACGATATCGGGACCGGAGACGTGCTA: 1.21 z-score
TCAAGAATGTTTTTCATACTGTGCTAG: 0.76 z-score
TTAGGACTGGGGTTTCGGCTAGTGCTA: 2.09 z-score
GACGGTATCGGATTTCGGGACGTGCTA: 2.41 z-score
TCAGGACTGACTCTTCAGACTGTGCTA: -0.901 z-score
TCAATTTTTACCCTCCTACTGTGCTAG: 0.565 z-score
AACGGTATCCTTTTCCTGACGTGCTAG: 0.6 z-score
